Assay results from different studies.
Each numbered part is a random draw from the data of one study; scales do not carry over between parts. Positions count from the first letter of the parent shown.
Chain of UniProt P14416 (whole entry, looked up): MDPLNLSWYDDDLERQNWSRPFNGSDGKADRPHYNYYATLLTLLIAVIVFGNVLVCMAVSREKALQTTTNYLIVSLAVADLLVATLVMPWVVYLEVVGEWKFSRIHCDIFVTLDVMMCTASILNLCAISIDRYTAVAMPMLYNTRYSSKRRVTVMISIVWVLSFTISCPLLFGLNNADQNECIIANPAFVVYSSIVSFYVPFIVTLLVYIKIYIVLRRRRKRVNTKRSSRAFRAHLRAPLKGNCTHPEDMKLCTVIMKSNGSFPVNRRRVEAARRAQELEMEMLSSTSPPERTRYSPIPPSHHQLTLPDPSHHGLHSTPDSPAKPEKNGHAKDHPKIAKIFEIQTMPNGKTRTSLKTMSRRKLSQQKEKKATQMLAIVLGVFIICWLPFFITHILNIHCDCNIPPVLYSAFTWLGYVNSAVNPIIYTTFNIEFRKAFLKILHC
Chain of UniProt P08588 (whole entry, looked up): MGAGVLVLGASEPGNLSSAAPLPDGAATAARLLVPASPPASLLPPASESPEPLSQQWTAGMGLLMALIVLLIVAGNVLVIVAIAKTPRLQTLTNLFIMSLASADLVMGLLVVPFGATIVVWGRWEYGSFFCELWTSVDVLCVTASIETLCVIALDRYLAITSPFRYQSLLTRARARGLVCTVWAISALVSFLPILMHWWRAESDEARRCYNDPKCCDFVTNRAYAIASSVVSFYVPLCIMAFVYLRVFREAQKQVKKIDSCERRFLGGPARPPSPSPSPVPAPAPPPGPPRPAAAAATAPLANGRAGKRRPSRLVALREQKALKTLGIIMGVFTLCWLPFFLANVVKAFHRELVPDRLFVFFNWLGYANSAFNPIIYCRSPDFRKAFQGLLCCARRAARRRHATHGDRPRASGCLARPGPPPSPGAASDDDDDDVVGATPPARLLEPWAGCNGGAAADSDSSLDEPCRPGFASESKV
Chain of UniProt Q9Y5N1 (whole entry, looked up): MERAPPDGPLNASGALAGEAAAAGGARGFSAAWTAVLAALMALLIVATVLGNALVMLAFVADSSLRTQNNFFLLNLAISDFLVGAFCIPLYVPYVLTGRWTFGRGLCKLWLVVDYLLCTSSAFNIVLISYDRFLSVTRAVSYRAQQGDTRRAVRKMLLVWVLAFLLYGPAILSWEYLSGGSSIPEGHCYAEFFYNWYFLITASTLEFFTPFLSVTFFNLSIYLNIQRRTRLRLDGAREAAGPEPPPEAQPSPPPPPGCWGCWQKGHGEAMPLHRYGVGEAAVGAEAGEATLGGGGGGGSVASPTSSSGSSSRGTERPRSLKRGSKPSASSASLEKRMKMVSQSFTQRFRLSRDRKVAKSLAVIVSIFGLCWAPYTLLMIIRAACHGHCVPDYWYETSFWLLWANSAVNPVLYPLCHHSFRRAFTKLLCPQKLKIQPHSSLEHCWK
Chain of UniProt P08912 (whole entry, looked up): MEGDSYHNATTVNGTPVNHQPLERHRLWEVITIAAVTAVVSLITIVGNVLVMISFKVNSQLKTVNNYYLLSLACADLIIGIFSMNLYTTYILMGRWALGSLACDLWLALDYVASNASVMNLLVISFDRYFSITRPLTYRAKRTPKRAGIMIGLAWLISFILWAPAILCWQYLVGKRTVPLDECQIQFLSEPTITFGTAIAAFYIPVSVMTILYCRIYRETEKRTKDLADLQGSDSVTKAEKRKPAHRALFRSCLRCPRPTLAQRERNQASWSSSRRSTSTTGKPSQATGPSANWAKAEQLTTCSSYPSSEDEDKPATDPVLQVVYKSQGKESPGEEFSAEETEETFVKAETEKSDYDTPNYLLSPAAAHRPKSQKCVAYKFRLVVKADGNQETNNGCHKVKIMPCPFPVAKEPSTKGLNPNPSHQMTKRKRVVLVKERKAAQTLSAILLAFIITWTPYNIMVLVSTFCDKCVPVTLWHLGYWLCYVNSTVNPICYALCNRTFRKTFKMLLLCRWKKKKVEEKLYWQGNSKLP

Study 1
Target: Centromere-binding protein 1, full length, N-terminal tag (CBF1, Saccharomyces cerevisiae, UniProt P17106, residues 1-351)
Chain of UniProt P17106 (whole entry, looked up): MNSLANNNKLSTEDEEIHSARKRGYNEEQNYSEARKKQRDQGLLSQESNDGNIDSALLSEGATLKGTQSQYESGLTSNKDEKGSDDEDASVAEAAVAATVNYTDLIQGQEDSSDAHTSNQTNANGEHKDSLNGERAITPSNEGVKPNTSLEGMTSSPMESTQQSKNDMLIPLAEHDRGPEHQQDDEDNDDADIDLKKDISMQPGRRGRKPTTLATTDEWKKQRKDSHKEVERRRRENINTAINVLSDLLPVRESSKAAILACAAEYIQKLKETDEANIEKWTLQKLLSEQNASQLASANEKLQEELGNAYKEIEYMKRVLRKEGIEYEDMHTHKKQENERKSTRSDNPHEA
Technique: protein-binding microarray
Form: double-stranded DNA, one strand shown
Sample: in vitro
Tested at: 0.8 µM
Setting: whole 60-bp probe, no competitor
Direction: higher = stronger binding
With `CTATATCCTGGGCTGCACGTGATAATATGTTACTTCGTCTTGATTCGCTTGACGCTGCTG` the fluorescence intensity was 8490 a.u.
`CCTAACTACTATAACTTCATGACATAGCTTCGTACAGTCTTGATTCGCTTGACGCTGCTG` gave a fluorescence intensity of 558 a.u.
`GAATTGGGAAACAGTCATCAGATCTTATGGAAATAGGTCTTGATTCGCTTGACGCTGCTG` has a fluorescence intensity of 578 a.u.
`CTAAGAAAAGAACACCACGACTAATAAAACAAATTCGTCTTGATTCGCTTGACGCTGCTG` gave a fluorescence intensity of 541 a.u.
`CTAATGCCCCCCTCAGGTGTCGTTAAATAAGCTTTCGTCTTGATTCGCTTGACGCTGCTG` gave a fluorescence intensity of 518 a.u.
`CTAGTAATTGCAGATCAACTGATAAATTAGAAATTCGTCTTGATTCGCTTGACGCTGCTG` gave a fluorescence intensity of 572 a.u.
The fluorescence intensity of `GAAGAAAATGTTGGTGATGCGCTTAGATTAAATTAGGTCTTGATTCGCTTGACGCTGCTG` is reported as 564 a.u.
`TGTACGAAGCTATCTCACGTTTTTATAGTAGTTAGGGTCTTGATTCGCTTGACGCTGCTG` gave a fluorescence intensity of 630 a.u.

Study 2
Target: G protein-coupled receptor kinase 6 (GRK6, Homo sapiens, UniProt P43250)
Chain of UniProt P43250 (whole entry, looked up): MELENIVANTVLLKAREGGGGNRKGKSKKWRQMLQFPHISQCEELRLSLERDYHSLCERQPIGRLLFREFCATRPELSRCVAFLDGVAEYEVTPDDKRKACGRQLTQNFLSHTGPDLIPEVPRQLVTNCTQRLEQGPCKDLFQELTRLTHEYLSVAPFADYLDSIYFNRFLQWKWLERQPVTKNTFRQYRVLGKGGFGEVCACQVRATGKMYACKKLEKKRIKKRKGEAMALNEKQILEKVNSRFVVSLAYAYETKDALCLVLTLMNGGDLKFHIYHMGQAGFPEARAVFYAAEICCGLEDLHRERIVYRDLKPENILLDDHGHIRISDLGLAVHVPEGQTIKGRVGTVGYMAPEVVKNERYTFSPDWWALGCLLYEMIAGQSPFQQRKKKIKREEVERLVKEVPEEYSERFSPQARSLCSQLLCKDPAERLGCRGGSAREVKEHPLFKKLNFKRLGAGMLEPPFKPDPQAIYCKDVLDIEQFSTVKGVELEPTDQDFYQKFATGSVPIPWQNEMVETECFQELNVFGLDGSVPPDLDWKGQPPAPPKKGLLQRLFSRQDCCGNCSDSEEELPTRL
Effect on: enzyme activity
Mode: inhibitor
Tested at: 0.5 µM
Baseline: control
`CC(C)[C@H](CO)Nc1nc(Nc2cc(N)cc(Cl)c2)c2ncn(C(C)C)c2n1` gave a remaining activity of 72.1%.
The remaining activity of `O=S(=O)(c1cccc2cnccc12)N1CCCNCC1` is reported as 95.4%.
For `O=C(O)c1ccc2c3c1cccc3c(=O)n1c3ccccc3nc21`, the remaining activity was 91.4%.
For `Cc1cccc(-c2[nH]c(C(C)(C)C)nc2-c2ccc3c(c2)OCO3)n1`, the remaining activity was 101%.
`NCCNc1ncc(C(N)=O)c(Nc2cccc(C(F)(F)F)c2)n1` gave a remaining activity of 95.1%.
The remaining activity of `O=c1c2ccccc2[nH]c(=S)n1CCN1CCC(=C(c2ccc(F)cc2)c2ccc(F)cc2)CC1` is reported as 111%.
`Nc1[nH]nc2nc3ccccc3nc12` has a remaining activity of 104%.
For `CNC(=O)c1cc(Oc2ccc(NC(=O)Nc3ccc(Cl)c(C(F)(F)F)c3)cc2)ccn1`, the remaining activity was 107%.
The remaining activity of `COc1cc2ncnc(Nc3ccc(Oc4ccccc4)cc3)c2cc1OC` is reported as 99.6%.
With `Nc1ncnc2n[nH]c(Nc3ccc(F)cc3)c12` the remaining activity was 103%.
With `CN(C)c1ccc(C=C2C(=O)Nc3ccccc32)cc1` the remaining activity was 102%.
`Cc1nc(-c2ccccc2)c(-c2ccncc2)o1` has a remaining activity of 105%.
For `O=C(Nc1cccc(Nc2cc(Nc3cccc(C(F)(F)F)c3)ncn2)c1)C1CC1`, the remaining activity was 98.3%.
The remaining activity of `N#CC(C#N)=C(N)/C(C#N)=C/c1ccc(O)cc1` is reported as 107%.

Study 3
Target: ATF3, bZIP domain (human)
Technique: DHFR protein complementation
Sample: yeast
Setting: single substitutions, most at no-binding floor
Baseline: wild-type JUN-FOS pair
Direction: higher = stronger binding
Starting sequence: JUN, bZIP domain (human); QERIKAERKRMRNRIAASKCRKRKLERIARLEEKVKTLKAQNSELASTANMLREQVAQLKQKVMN; partner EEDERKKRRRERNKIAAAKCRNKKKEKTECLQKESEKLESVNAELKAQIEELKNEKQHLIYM
The binding fitness of `L31D` is reported as -0.788 natural log.
With `A40W` the binding fitness was -0.349 natural log.
The binding fitness of `A49P` is reported as -1.55 natural log.
`A57S` gave a binding fitness of -0.261 natural log.
`M51N` has a binding fitness of -0.201 natural log.
`K36H` gave a binding fitness of -0.235 natural log.
`L31R` has a binding fitness of -0.97 natural log.
For `S43D`, the binding fitness was -0.0878 natural log.

Study 4
SMILES: CNC(=O)c1cc(C(=O)N[C@H]2[C@@H]3COC[C@@H]32)cc2c1O[C@H](CF)[C@H]2c1ccccc1
Effect on: binding
Technique: radioligand binding
Tested at: 10 µM
Sigma non-opioid intracellular receptor 1 (SIGMAR1, Homo sapiens, UniProt Q99720) — inhibition: 28.4%.
The inhibition was 6.03% (Beta-1 adrenergic receptor (ADRB1, Homo sapiens, UniProt P08588)).
It gave 2.23% for inhibition (Muscarinic acetylcholine receptor M5 (CHRM5, Homo sapiens, UniProt P08912)).
It gave 17.9% for inhibition (Beta-2 adrenergic receptor (ADRB2, Homo sapiens, UniProt P07550)).
For Histamine H3 receptor (HRH3, Homo sapiens, UniProt Q9Y5N1): inhibition read -9.57%.
It gave 60.9% for inhibition (D(2) dopamine receptor (DRD2, Homo sapiens, UniProt P14416)).

Excerpt of the above (study 2):
The remaining activity of `O=S(=O)(c1cccc2cnccc12)N1CCCNCC1` is reported as 95.4%.
The remaining activity of `O=c1c2ccccc2[nH]c(=S)n1CCN1CCC(=C(c2ccc(F)cc2)c2ccc(F)cc2)CC1` is reported as 111%.
The remaining activity of `N#CC(C#N)=C(N)/C(C#N)=C/c1ccc(O)cc1` is reported as 107%.
